Experimental data gathered from unrelated publications.
Each numbered part is a random draw from the data of one study; scales do not carry over between parts.

Sample 1
Target: Histone acetyltransferase KAT6A, both winged helices, GST fusion (KAT6A, Homo sapiens, UniProt Q92794, residues 1-181)
Technique: protein binding microarray
Form: double-stranded DNA, one strand shown
Matrix: in vitro
Concentration: not given
Setting: 8-mer, flanks averaged, mean of 2 arrays, mostly near background
Baseline: not given
Direction: higher = stronger binding
Target sequence (chain): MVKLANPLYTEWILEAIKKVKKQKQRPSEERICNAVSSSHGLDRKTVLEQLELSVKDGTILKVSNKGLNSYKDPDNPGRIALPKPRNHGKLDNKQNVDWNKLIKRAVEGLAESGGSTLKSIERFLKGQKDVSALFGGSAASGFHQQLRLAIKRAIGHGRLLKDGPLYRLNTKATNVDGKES
Sequence	E-score
GGTATAAA	0.0242
GGGGCTTA	-0.0961
GTCAGTAA	-0.044
CGTGTAAA	0.116
AGGTCTAC	-0.0826
TAATGACA	-0.116
ATTAATTG	-0.0554
AAAGGGTC	-0.0196
ATTGACTA	-0.0799
CTCAGATA	-0.091
AGATTGAA	-0.0172
CGCGATGC	0.284
CATCTCGC	0.0911
ACAAGTGA	-0.011
CCAAACGC	-0.0619
CCCCATCC	-0.107
AGAGTGTA	-0.126
TACTGGAA	-0.142
ACACGGAA	0.245
AGTTCGGC	0.0742
CTGAATTA	-0.0157
AGGTTGAA	-0.0267

Sample 2
Target: Ras GTPase-activating protein-binding protein 1, RRM domain (G3BP1, Homo sapiens, UniProt Q13283)
Sequence of UniProt Q13283 (whole entry, looked up): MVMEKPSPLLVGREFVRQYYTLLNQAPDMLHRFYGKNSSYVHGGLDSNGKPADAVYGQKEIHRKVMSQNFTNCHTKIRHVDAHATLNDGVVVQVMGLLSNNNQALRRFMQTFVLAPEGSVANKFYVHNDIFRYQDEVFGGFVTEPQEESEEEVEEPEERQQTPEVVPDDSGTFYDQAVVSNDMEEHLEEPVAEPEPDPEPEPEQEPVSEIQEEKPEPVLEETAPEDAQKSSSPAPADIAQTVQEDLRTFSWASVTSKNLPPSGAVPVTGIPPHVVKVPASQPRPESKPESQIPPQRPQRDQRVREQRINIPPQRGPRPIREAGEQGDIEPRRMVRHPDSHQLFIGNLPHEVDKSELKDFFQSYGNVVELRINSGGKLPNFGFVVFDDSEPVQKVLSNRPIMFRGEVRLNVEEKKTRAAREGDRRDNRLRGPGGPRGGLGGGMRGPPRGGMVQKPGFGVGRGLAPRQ
Technique: RNA Bind-n-Seq
Form: RNA
Matrix: in vitro
Concentration: 1 µM
Setting: whole 134-nt RNA, ends assumed
Added: 150 mM KCl
Baseline: input library
Direction: higher = stronger binding
Constant ends, left off below: GGGAGUUCUACAGUCCGACGAUC … UGGAAUUCUCGGGUGUCAAGG
Sequence	log2 enrichment
AAGUCCUGUGCUACACAUCGUAUGUACCGAAUCGGGCCCGGGCCCGGGGCCCGGGGAAAGUAUUAUGUUACGCCGUUCGGAUCUGCACUU	-0.925
AAGUCCUGUGCUACACAUCGUAUGUACCGAAUCGGGUUUUUUUGGGAGGGUUUGGGAAAGUAUUAUGUUACGCCGUUCGGAUCUGCACUU	0.156
CCUCAAGUCCUGUGCUACACAUCGUAUGUACCGAAUCGGAAAAAGGUGGAGGAAAGUAUUAUGUUACGCCGUUCGGAUCUGCACUUCCAG	-0.0744
UCAAGUCCUGUGCUACACAUCGUAUGUACCGAAUCGGUGGUUUGGAAAAAAAGGAAAGUAUUAUGUUACGCCGUUCGGAUCUGCACUUCC	-0.109
AAGUCCUGUGCUACACAUCGUAUGUACCGAAUCAAACCCAAAUUUAAACCCCCAAAAAAGUAUUAUGUUACGCCGUUCGGAUCUGCACUU	-0.154
CUGUGCUACACAUCGUAUGUACCGAAUCGGGGUUUUUUUGGGGUUUUUUUGGGGAAAGGGGAAAGUAUUAUGUUACGCCGUUCGGAUCUG	0.483
UGCAGCAGCGCCAGGAAUCGAGGAUGGUAAAAUGACCCAGGGGAAGAAGAAGAAACGGGCCGCGAACCGCAGUAUCAUGCUGGCCAAGAA	-0.156
CCUGUGCUACACAUCGUAUGUACCGAAUCGGGGUUUUUGGGGUUUGGGGUUUUUUUGGGGAAAGUAUUAUGUUACGCCGUUCGGAUCUGC	1.05
CCUGUGCUACACAUCGUAUGUACCGAAUCGGAAAAAAAGGGGAAAAAAAGGAAAAAAAGGGAAAGUAUUAUGUUACGCCGUUCGGAUCUG	0.0687

Sample 3
Target: Interferon regulatory factor 3, full length, phosphomimetic (IRF3, Homo sapiens, UniProt Q14653, residues 1-427, S386D/S396D/S398D/S402D/T404D/S405D)
Technique: protein-binding microarray
Form: double-stranded DNA, one strand shown
Matrix: in vitro
Concentration: 2540 nM top
Setting: 60-bp whole probe
Added: salmon DNA 0.4 mg/ml
Baseline: random background probes
Direction: higher = stronger binding
Constant ends, left off below: GCCTAGCAC … GTCTTGATTCGCTTGACGCTGCTG
Residues (chain): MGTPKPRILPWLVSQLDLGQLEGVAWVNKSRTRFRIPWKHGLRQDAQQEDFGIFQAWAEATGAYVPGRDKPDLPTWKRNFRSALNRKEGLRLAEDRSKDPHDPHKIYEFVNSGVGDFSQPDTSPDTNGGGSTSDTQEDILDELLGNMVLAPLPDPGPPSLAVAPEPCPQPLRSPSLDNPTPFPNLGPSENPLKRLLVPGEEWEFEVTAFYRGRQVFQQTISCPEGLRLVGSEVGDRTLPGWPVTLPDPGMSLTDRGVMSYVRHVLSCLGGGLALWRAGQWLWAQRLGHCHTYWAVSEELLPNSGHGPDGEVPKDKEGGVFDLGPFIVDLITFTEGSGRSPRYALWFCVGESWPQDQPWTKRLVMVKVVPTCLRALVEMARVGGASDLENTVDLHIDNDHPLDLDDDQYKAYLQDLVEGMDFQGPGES
Sequence	fitted relative affinity [z-score]
GACGATATCGTGTATCGAGACGTGCTA	0.197
TGGTTTTTACTTTCTGAATGGTGCTAG	3.46
AAGCAGTTACTCTAGAGGCCGTGCTAG	-0.621
TTAGGACGGCTTTTCCTTTAGTGCTAG	0.207
TTAGCACTGAGTATCGATTAGTGCTAG	-0.0905
GACGGTATCCTTTTCCTGAAGTGCTAG	7.85
TTAGGTATCGACACTGGGTGAGTGCTA	0.148
TCACTTTTCCATTTTGTACTGTGCTAG	3.65
TTCGGTTCCGGTTTCGGTTAGTGCTAG	7.46
TTAGGTTTCGGTCTCGGTTTGTGCTAG	9.02
TTAGGACTGCTTCTCCCTTAGTGCTAG	-0.104
TCACCTTTACATTCCCCACTGTGCTAG	1.76
TTAGAACTGTGGTTTCGATTAGTGCTA	2.26
TTAGAACTCAGTCTCGATTAGTGCTAG	0.203
TTAGAACTGGGTTTCGGTTAGTGCTAG	3.38
GACGGTTACCTTTCCCTGACGTGCTAG	5.8
TGAGGTATCGACTATCGGTTAGTGCTA	0.157
TCAGTGCTCATGCTTCTTACTGTGCTA	-0.65
GACGGTTTCGGACTGCGGACGTGCTAG	4.6

Sample 4
Target: RNA binding protein fox-1 homolog 2, RRM domain, GST-SBP tag (RBFOX2, Homo sapiens, UniProt O43251-10, residues 100-194)
Technique: RNA Bind-n-Seq
Form: RNA
Matrix: in vitro
Concentration: 365 nM
Setting: natural RNA segment, single round, ends assumed
Baseline: no-protein control
Direction: higher = stronger binding
Constant ends, left off below: GGGAGUUCUACAGUCCGACGAUC … UGGAAUUCUCGGGUGCCAA
Target sequence (chain): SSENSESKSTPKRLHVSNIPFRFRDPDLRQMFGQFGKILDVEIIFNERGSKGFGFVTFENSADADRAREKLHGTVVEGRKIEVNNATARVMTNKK
Sequence	RBNS enrichment (R)
CACCUCCUGUUUGCCAGGGGGGAAGAACCUAAAGACUUGCUGGGGUAGGAAAUGAGGGCAGACAGGAAGAGAGCAACAUGUCCAGCCCAUAGACUCCACAGAGAAUGGUG	6.78
AGGUGCAGCCCUAAGGGGUGGACUCCAGAUCUCCCUGCAAGAGACAGCUUGGCUUGGCUUUGGCUGUUGGGGAGGAGUCCCUGCCAUCCCGGUGAGCCUGGGGCUGUUGC	0.296
GGUGUCGGUGUCAUUGUCUCAGCUCAAAGAGCCACCUGCUUCAGAUACCAUGGGCAUGUGCUGAGUGGAUGCACCAGGGGGCAGCACAGCUCCAUGAUUCCCAGUGGGGC	0.618
CUGGACCAUUCCUGUCCCUUUGUUACCAUACUGUCUCUGGAGUGAUGGUGUCCUUCCCUGCCCCACCACGCAUGCUCAGUGCCUUUUGGUUUCACCUUCCCUCGACUUGA	12.1
GGAAGCAGGUCUCCGCGAGGGGUUUCUUUCCAUGUGUUUUCCUCCUGUUGUUUUAGAACUUUUUUAAAAAAACAGACCUCGUUUUAGAUUUAUAGCAUUGACUUUUACAC	0.821
UAACCCUGGAUCCAUCUCUAAGUAGAGAGAGGGUGCCCAUUGCCUAGGUGAGUGUGCCAAGCUCAGGAUUCCAACUGGUGCCUCUGAGCUUCCCAAUCAAUACUUCCUGG	0.263
GACUUCAUCCUGCCUUUGUCUUCGAAGCUAUCAGGGAACUGCGGGGUCCCAAAUAUGAUAAUCACGUGGCACCUCUGGCAUUGCUCCCUUGGGCUGUCACUGGGGACUGG	0.478
AAGUCAAAGUAGAAACCCUCCAGUGUUUGGUGUUGUGUAGAGAAUAGGACAUAGGGUAAAGAGGCCAAGCUGCCUGUAGUUAGUAGAGAAGAAUGGAUGUGGUUCUUCUU	1.84

For quick reference, copied from above (sample 3):
Sequence	fitted relative affinity [z-score]
GACGGTATCCTTTTCCTGAAGTGCTAG	7.85
TTAGGTATCGACACTGGGTGAGTGCTA	0.148
TCACTTTTCCATTTTGTACTGTGCTAG	3.65
TTCGGTTCCGGTTTCGGTTAGTGCTAG	7.46
TTAGGTTTCGGTCTCGGTTTGTGCTAG	9.02
TTAGGACTGCTTCTCCCTTAGTGCTAG	-0.104
TCACCTTTACATTCCCCACTGTGCTAG	1.76
TTAGAACTGTGGTTTCGATTAGTGCTA	2.26
TTAGAACTCAGTCTCGATTAGTGCTAG	0.203
